Results of several laboratories.
Several values in a cell are separate wells, animals, samples, runs or records. ± marks the error that the study gave.
IDE: Insulin-degrading enzyme (IDE, Homo sapiens, UniProt P14735)

Cc1ccc(Sc2ccccc2N2CCNCC2)c(C)c1  participants with TEAE (item: blood uric acid increased; healthy adult women; oral, 5 mg daily, 12 days): 0%
CCn1ncc(S(=O)(=O)N2C/C=C\CN3[C@H](CO)[C@@H](c4ccc(-c5cccc(C)c5C)cc4)[C@@H]3C2)c1C  EC50 (IDE; enzyme activity, inhibitor, fluorescence kinetic; with: Mca-RPPGFSAFK(Dnp)-OH substrate): 16 nM
Cc1nc2cccc(OCC(C)(C)C(=O)NC(C)C)c2c(N)c1C(=O)O  micronucleated PCE per 14000 PCE (male Swiss albino CD-1 mouse, bone marrow; oral, 2000 mg/kg, 48 h): 12
COc1cc2c(Nc3ccc(Cl)c(Cl)c3F)ncnc2cc1OC[C@@H]1C[C@@H]2CN(C)C[C@@H]2C1  total brain concentration (FVB wild-type mice, brain; intraperitoneal infusion (osmotic pump), 10 µg/h, 48 h): 2970 nM
O=C(Nc1nc2cccc(-c3ccc(CN4CCS(=O)(=O)CC4)cc3)n2n1)C1CC1  patients with Arthralgia (rheumatoid arthritis patients; oral, 100 mg twice daily, 4 weeks, TEAE regardless of relatedness): 8.3%
CNC(=O)c1cc(Oc2ccc(NC(=O)Nc3cc(C(C)(C)C)nn3-c3ccc4ncccc4c3)c(F)c2)ccn1  patients with any AE of special interest (item: worst grade 3; human; oral, dose not given, cycles 1 and 2, High AUC(0-4 h) subgroup): 28%
CNC(=O)c1ccc(-c2cnc3ncc(Cc4ccc5ncccc5c4)n3n2)cc1F  patients with adverse event (item: Nausea; cancer patients; oral, dose not given, dose escalation, grade 3-4): 0%
C/C(=N\NC(=O)Cn1c(-c2ccc(S(C)(=O)=O)cc2)nc2cc(Cl)ccc21)c1ccc(Cl)cc1  ulcer number (rat, stomach; concentration not given, 4 h): 0.33
CC(C)(C(=O)N1CCOc2c(C#N)cncc2C1)C(F)F  subjects with TEAE (item: cutaneous vasculitis; human, both sexes; oral, 20 mg once daily, 14 days, multiple ascending dose): 0%
C=CC(=O)Nc1cc(Nc2nccc(-c3cn(C)c4ccccc34)n2)c(OC)cc1N(C)CCN(C)C  apparent parent volume Vp/F (population PK model; human, plasma; oral, dose not given): 1150 L
CCOc1c([C@H](C)n2nc(C)c3c(N)ncnc32)cc(Cl)c(F)c1[C@@H]1CNC(=O)C1  Tmax median (patients, monotherapy; oral, 20 mg once daily, cycle 1 day 15): 1 h
CCO[C@H]1CCN(Cc2c(OC)cc(C)c3[nH]ccc23)[C@H](c2ccc(C(=O)O)cc2)C1  incidence alkaline phosphatase increase (PNH patients, active haemolysis; oral, 50 mg, treatment): 16.7%
N#Cc1ccc2c(c1)[C@H]1CCCN(C(=O)c3ccc4[nH]cnc4c3)[C@H]1C2  SHBG level (human females; 240 mg, day 7): 36.4 nmol/L
Cc1ccc([C@@H]2O[C@H](CO)[C@@H](O)[C@H](O)[C@H]2O)cc1Cc1ccc(-c2ccc(F)cc2)s1  urinary magnesium excretion change (Japanese type 2 diabetes patients; 100 mg, day 18, 24 h urine collection; relative to: baseline): 33.9 mg
FC(F)(F)c1ccc(/S(=N\c2ccccc2)C2CC2)cc1 (stereo not drawn)  metabolic stability (human liver microsomes; relative to: hepatic blood flow): > 89%
Cc1ccc(C(=O)N(CCCN)C(c2nc3snc(C)c3c(=O)n2Cc2ccccc2)C(C)C)cc1 (stereo not drawn)  grade ≥3 hypokalemia patients (human patients; intravenous, 16 mg/day): 43%
CN1C[C@H](COc2nccc3c(NCc4ccco4)cc(Cl)nc23)OC1=O  left ventricular end-diastolic pressure (rabbit NZW female, isolated Langendorff heart; 10 µM, 15 min): 6 mmHg
O=C(N[C@H](Cc1c[nH]c2ccccc12)C(=O)Nc1ccncc1)c1ccc(-c2cc(C(F)(F)F)ccc2F)cc1F  concentration (Swiss Webster mouse, female, fat; oral, 50 mg/kg, 8 h, 20% Kolliphor vehicle): 21.2 µM
C=CC(=O)Nc1cc(Nc2nccc(Nc3cc(Cl)c(F)cc3C(C)(C)O)n2)c(OC)cc1N1CC[C@@H](N(C)C)C1  body weight loss (tumour-bearing mice; oral, dose not given, twice daily): < 15%
Cc1ccc2c(c1)C(=O)[C@]1(O)CCN(c3ccc4nc(C)ccc4c3)C1=N2  tissue/plasma ratio (mouse; subcutaneous, 10 mg/kg, 30 min; relative to: brain over plasma): 1.5
Cc1cccc(CNC(=O)c2cn(CCNC(=O)c3ccccc3S)c3cc4c(cc3c2=O)OC(F)(F)O4)n1  bioavailability (Sprague-Dawley rat, male, plasma; intramuscular, 3 mg/kg of parent drug): 88%
CNC(=O)c1ccc(-c2cnc3ncc(Cc4ccc5ncccc5c4)n3n2)cc1F  AUC(0-t) (human moderate hepatic impairment NCI; oral, 200 mg single dose, geometric mean): 7260 ng·h/mL
COc1cc(N2CCC(N3CCN(C)CC3)CC2)ccc1Nc1ncc(Cl)c(Nc2ccccc2P(C)(C)=O)n1  body weight (nude mice, NCI-H3122 xenograft; intraperitoneal, 10 mg/kg every other day, day 3): 23.8 g and 24 g and 20.5 g and 23 g and 23.4 g
CN1CCC[C@H](CN2c3ccccc3Sc3ccccc32)C1.Cl  AUC(0-t) (Wistar rat female, lung; oral, 16 mg/kg): 243000 ng·h/mL
OC[C@H]1O[C@@H](c2ccc(F)c(Cc3cc4ccccc4s3)c2)[C@H](O)[C@@H](O)[C@@H]1O  hypoglycaemia-related adverse event (Japanese patients, type 1 diabetes; oral, 50 mg/day, onset day 11; relative to: patients): 4%
Cc1ccccc1-c1ccc([C@H]2[C@@H]3CN(C(=O)C4CCOCC4)C[C@H]2N3)cc1  EC50 (IDE; enzyme activity, inhibitor, fluorogenic kinetic; with: Mca-RPPGFSAFK(Dnp)-OH substrate): 2200 nM
Cl.[2H]C([2H])([2H])CC(=O)c1cnc(NC(=O)C2CC2)cc1Nc1cccc(-c2ncn(C([2H])([2H])[2H])n2)c1OC  AUC(0-tau) (geometric mean; human; oral, 20 mg twice daily, day 14, fasted, tablet, multiple dose): 1920 ng·h/mL
CN(c1ccc(F)cc1)c1c(-c2cccc(F)n2)nc2ccccn12  CC50 (peritoneal macrophages, Swiss mice; 5 days, 5% fetal calf serum): > 63100 nM
COc1ccnc(C(=O)N[C@@H](CO)C(=O)O)c1OCOC(=O)C(C)C  DT50 whole system (Staffordshire loam sediment, aerobic dark; 20 °C): 1.4 days
C=CC(=O)NC1CCN(c2ncc3ncnc(Nc4ccc(Oc5ccc6c(c5)ncn6C)c(C)c4)c3n2)CC1  blood-to-plasma ratio (item: total radioactivity; healthy male human, whole blood and plasma; oral, 60 mg, 4 h, geometric mean): 0.757
N#C[C@@]1(c2ccc3c(N)ncnn23)O[C@H](CO)[C@@H](O)[C@H]1O  recovery (plasma protein binding; mouse plasma; 100 µM, time not given): 109%
O=C([O-])CCCCCCCNC(=O)c1ccccc1O.[Na+]  AUC(0-24h) (human; oral, dose not given, steady state): 1470 ng·h/mL
CNCc1ccc(-c2[nH]c3cc(F)cc4c3c2CCNC4=O)cc1  headache incidence (human patients; oral, 840 mg twice daily, all grades): 33.3%
Cc1cccc(CNC(=O)c2cn(CCNC(=O)c3ccccc3Sc3c([N+](=O)[O-])ncn3C)c3cc4c(cc3c2=O)OC(F)(F)O4)n1  bioavailability (Sprague-Dawley rat, male, whole blood; intramuscular, 3 mg/kg of parent drug): 48%
COc1cccc(OC)c1-c1cc(C(=O)NC2(C(=O)O)C3CC4CC(C3)CC2C4)nn1-c1ccc(C(=O)N(C)CCCN(C)CCCN(C)C(=O)CN2CCN(CC(=O)[O-])CCN(CC(=O)[O-])CCN(CC(=O)[O-])CC2)cc1C(C)C.[177Lu+3] (stereo not drawn)  tumour-to-small intestine ratio (mouse HT-29 xenograft; 24 h, biodistribution; relative to: tumour over small intestine): 43.3
O=C(Nc1cnccc1Cl)N1CCN(Cc2ccc3c(c2)OC(F)(F)O3)CC1  postural dizziness incidence (multiple ascending dose; young men; 75 mg, treatment-emergent adverse events): 16.7%
CCCCCN(C)CCC(O)(P(=O)(O)O)P(=O)(O)OP(=O)(O)OC[C@H]1O[C@@H](n2ccc(N)nc2=O)C(F)(F)[C@@H]1O (stereo partly drawn)  hydrolysis half-life (human serum; concentration not given, 37 °C, 50% serum): 34.7 h
C[C@@H]1OC(=O)[C@H](Cc2ccccc2)[C@H]1O  DT50 whole system (Swiss Lake sand sediment, aerobic dark; 20 °C): 23.1 days
COc1ccc2c(=O)n(C)c(-c3ccccc3)nc2c1  tissue/plasma ratio (Sprague-Dawley rat, male, stomach; oral, 30 mg/kg, 0.25 h; relative to: stomach over plasma): 731
C=CCN1CC(=O)N2[C@@H](Cc3ccc(O)cc3F)C(=O)N(Cc3cccc(N4CC(N5CCN(CC)CC5)C4)n3)C[C@@H]2N1C(=O)NCc1ccccc1  treatment-related ALT increased (advanced solid tumour patients; oral, 30 mg twice daily, grade ≥3, dose-escalation): 0%
CC[C@H](C)CCCCC(=O)N[C@@H](CCN)C(=O)N[C@H](C(=O)N[C@@H](CCN)C(=O)N[C@H]1CCNC(=O)[C@H]([C@@H](C)O)NC(=O)[C@H](CCN)NC(=O)[C@H](CCN)NC(=O)[C@H](CC(C)C)NC(=O)[C@@H](Cc2ccccc2)NC(=O)[C@H](CCN)NC1=O)[C@@H](C)O  adverse event incidence (item: infections and infestations; all subjects; intravenous, 0.75 mg/kg): 4.55%
OB1NN=Cc2ccccc21  peak area (stability, UPLC-MS; diluted serum; 2 day, 37 °C; higher = more compound remaining): 312000 a.u. and 305000 a.u. and 309000 a.u.
N[C@@H](CC(=O)O)C(=O)OC(C(=O)O)c1ccccc1[N+](=O)[O-].O=C(O)C(F)(F)F (mixture of isomers)  hydrolysis half-life, B isomer (1H NMR, dark; 50 mM sodium phosphate; concentration not given, pH 9.0, room temperature, 12.5% DMSO-d6): 26.2 ± 0.4 h
COc1ccc([C@@H](O)c2cc(-c3ncnc4cc(N5CCOCC5)ccc34)c(F)cc2Cl)nn1  renal clearance (geometric mean; healthy volunteers, urine; oral, 100 mg, fasted tablet): 5.15 mL/min
COc1ccnc(C(=O)NCC(=O)O)c1O  DT50 (aerobic dark soil incubation; clay loam soil; 20 °C, persistence endpoint): 8.31 days
Cc1cc(Nc2ncc(Cl)c(Nc3ccccc3S(=O)(=O)C(C)C)n2)c(OC(C)C)cc1C1CCNCC1  MTD (CD1 nude mouse; oral, 20 days): 50 mg/kg
COc1cccc(-c2n[nH]c(SCc3ccccn3)n2)c1OC  plasma concentration (Sprague-Dawley rats, both sexes; oral dietary, 30 mg/kg/day, day 7, 3 h): 762 ng/mL
Cc1cc(NC2CCN(C(=O)OC3CCN(C(=O)/C=C/CN(C)C)C3)CC2)n2ncc(C(C)C)c2n1 (stereo not drawn)  patients with adverse events (patients with advanced solid tumours; dose not given, QD arm, grade 3 or higher): 44%
C=CCn1c(=O)c2cnc(Nc3ccc(N4CCN(C)CC4)cc3)nc2n1-c1ccc2c(n1)[C@@](O)(CC)CC2  Cmax (A-427, female NOD/SCID mouse xenograft, plasma; oral, 20 mg/kg once daily): 1170 ng/mL
C[C@@H](Nc1cc(F)cc(F)c1)c1cc(C(=O)N(C)C)cc2c(=O)cc(N3CCOCC3)oc12  any dose interruption (advanced solid tumour patients; oral, 30 mg twice daily, continuous monotherapy): 75%
C=CC(=O)N1CCC(c2ccc(C(N)=O)c(-c3ccc(Oc4ccccc4)cc3)n2)CC1  incidence of serious COPD (CTCAE 4.03; patients with relapsed/refractory MCL; oral, dose not given): 0.9%
CNC(=O)c1ccc(-c2cnc3ncc(Cc4ccc5ncccc5c4)n3n2)cc1F  Dizziness patients (Japanese patients; oral, 400 mg twice daily, grade 3/4): 0%
Cc1cc(Nc2cc3ncccc3c(N[C@@H]3C[C@H]4CC[C@@H](C3)N4CCC#N)n2)n[nH]1  subjects with epistaxis (healthy human; oral, 300 mg single dose, 2 weeks): 0%
CCc1cc(C(=O)NC)c2nccc(N3CCc4c(cc(Cn5ccnc5)cc4-c4cn(C)nc4C(F)(F)F)C3=O)c2c1  heart weight (Sprague Dawley rat; oral, 50 mg/kg once daily, 7 days): 1 ± 0.056 g
C=CC[C@@H]1/C=C(\C)C[C@H](C)C[C@H](OC)[C@H]2O[C@@](O)(C(=O)C(=O)N3CCCC[C@H]3C(=O)O[C@H](/C(C)=C/[C@@H]3CC[C@@H](O)[C@H](OC)C3)[C@H](C)[C@@H](O)CC1=O)[C@H](C)C[C@@H]2OC  plasma urea level (Wistar Kyoto rat, male, plasma; ip, 0.5 mg/kg/day, day 28, at sacrifice): 6.2 ± 0.6 mmol/L
CCN1/C(=C/C(C)=O)Sc2ccc(F)cc21  diastolic blood pressure (cynomolgus monkey; oral, 100 mg/kg, 6 h post-dose): 79 ± 6 mmHg
NC1(C(=O)N[C@@H](CCO)c2ccc(Cl)cc2)CCN(c2nc[nH]c3nccc2-3)CC1  incidence of Dysuria (metastatic CRPC patients; 400 mg b.i.d., grade 3 to 4, treatment-related, with: enzalutamide 160 mg daily): 0%
